Results pooled from the literature.
A part holds a random share of what one study measured.
UniProt P62344, sequence (whole entry, looked up): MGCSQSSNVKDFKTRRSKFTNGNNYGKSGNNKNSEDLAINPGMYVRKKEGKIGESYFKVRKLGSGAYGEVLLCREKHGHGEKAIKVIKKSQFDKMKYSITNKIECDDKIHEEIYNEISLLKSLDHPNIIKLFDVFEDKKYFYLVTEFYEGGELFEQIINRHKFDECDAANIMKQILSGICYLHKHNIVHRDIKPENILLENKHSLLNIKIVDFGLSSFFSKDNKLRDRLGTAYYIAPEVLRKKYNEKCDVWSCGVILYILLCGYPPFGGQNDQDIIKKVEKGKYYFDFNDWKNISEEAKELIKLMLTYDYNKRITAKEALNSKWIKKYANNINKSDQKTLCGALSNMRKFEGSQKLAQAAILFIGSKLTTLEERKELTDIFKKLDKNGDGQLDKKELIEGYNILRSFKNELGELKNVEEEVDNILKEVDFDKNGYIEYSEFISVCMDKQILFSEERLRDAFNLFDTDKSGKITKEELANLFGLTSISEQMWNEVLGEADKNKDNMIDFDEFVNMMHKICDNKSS

Set 1
Cell line: HaCaT
Tested at: 100 µM
Time: 36 h
The viability of CCC1(c2ccc(N)cc2)CCC(=O)NC1=O (stereo not drawn) is reported as 85.4%.
NCC(CC(=O)O)c1ccc(Cl)cc1 (stereo not drawn) gave a viability of 82.8%.
Cc1ccc(/N=C/N(C)/C=N/c2ccc(C)cc2C)c(C)c1 has a viability of 8.37%.

Further values, each from its own experiment
C[C@H](N)[C@H](O)c1ccc(O)c(O)c1 has a viability of 100% (Huh-7; 10 µM, 24 h).
CC(C)c1ccc(CN2CCN(CCO)CC2)cc1 has a remaining compound of 73.2% (mouse, microsomes or S9; 2 µM, 0.5 h).
With O=C(Nc1cccnn1)N1CC(C/C=C/c2cncc(Oc3ccc(C(F)(F)F)cn3)n2)C1 the remaining binding was 99% (Calcium-dependent protein kinase 1 (CDPK1, Plasmodium falciparum, UniProt P62344); cell-free assay, competition with immobilised ligand; 1 µM).
The viability of NCC(CC(=O)O)c1ccc(Cl)cc1 (stereo not drawn) is reported as 100% (Huh-7; 10 µM, 24 h).
With CN[C@@H]1C[C@H]2O[C@@](C)([C@@H]1OC)n1c3ccccc3c3c4c(c5c6ccccc6n2c5c31)C(=O)NC4 the viability was 0.9% (sample D normal colon organoid; CellTiter-Glo; 1 µM, mean of replicates; relative to: DMSO).
For CCC(N)C(O)c1ccc(O)c(O)c1 (stereo not drawn), the viability was 98.5% (Huh-7; 10 µM, 24 h).

Excerpt of the above (further values, each from its own experiment):
With CN[C@@H]1C[C@H]2O[C@@](C)([C@@H]1OC)n1c3ccccc3c3c4c(c5c6ccccc6n2c5c31)C(=O)NC4 the viability was 0.9% (sample D normal colon organoid; CellTiter-Glo; 1 µM, mean of replicates; relative to: DMSO).
